Published values of several laboratories.
Each line is one published result; not all experiments were run side by side. Values joined by “and” are separate records of one study, mostly repeats; a detail may differ. ± gives the spread as reported.

The AUC(0-last) of N[C@@H](Cc1ccc(O)c(O)c1)C(=O)O is reported as 340 ng·h/mL and 329 ng·h/mL (rhesus and cynomolgus macaque, plasma; subcutaneous, dose not given, PDE9 inhibitor vehicle co-dosed).
For COc1cccc(N2CCN(C3=Nc4c(F)cccc4[C@H](CC(=O)O)N3c3cc(C(F)(F)F)ccc3OC)CC2)c1, the AUC(0-last) was 30000 ± 5410 ng·h/mL (healthy women, plasma; intravenous infusion, 240 mg, day 1, single dose, 30-min infusion).
C[C@]12C=CC(=O)C=C1CC[C@@H]1[C@@H]2[C@@H](O)C[C@@]2(C)[C@H]1C[C@H]1O[C@@H](C3CCCCC3)O[C@]12C(=O)CO gave an AUC(0-last) of 0.443 ± 0.043 ng·h/mL (children with asthma, serum; inhaled, 160 µg ciclesonide, day 7, HFA-MDI without spacer, steady state).
With CCOc1ccc(Cc2cc([C@@H]3S[C@H](CO)[C@@H](O)[C@H](O)[C@H]3O)c(OC)cc2C)cc1 the AUC(0-last) was 2120 ± 804 ng·h/mL (Japanese type 2 diabetes patients, plasma; oral, 5 mg single dose, eGFR 45-59 mL/min/1.73 m^2).
C[C@@H](O)[C@H]1C(=O)N2C(C(=O)O)=C(S[C@@H]3CN[C@H](C(=O)N(C)C)C3)[C@H](C)[C@H]12 gave an AUC(0-last) of 51900 ng·h/mL (UHPLC, noncompartmental; pig (Danish Landrace), plasma, free concentration; iv infusion, 1000 mg over 10 min, together with: vancomycin co-administered).
NC(=O)c1cnc2[nH]ccc2c1N[C@@H]1[C@@H]2CC3C[C@H]1C[C@@](O)(C3)C2 has an AUC(0-last) of 1300 ng·h/mL (Japanese, normal hepatic function, plasma; oral, 150 mg single dose, mean).
With CN[C@H](CC(C)C)C(=O)N[C@H]1C(=O)N[C@@H](CC(N)=O)C(=O)N[C@H]2C(=O)N[C@H]3C(=O)N[C@H](C(=O)N[C@H](C(=O)O)c4cc(O)cc(O)c4-c4cc3ccc4O)[C@H](O)c3ccc(c(Cl)c3)Oc3cc2cc(c3O[C@@H]2O[C@H](CO)[C@@H](O)[C@H](O)[C@H]2O[C@H]2C[C@](C)(N)[C@H](O)[C@H](C)O2)Oc2ccc(cc2Cl)[C@H]1O the AUC(0-last) was 86800 ng·h/mL (microdialysis; Danish Landrace pigs, subcutaneous adipose tissue; intravenous, 1000 mg, 100 min infusion, together with: meropenem).
Cc1c(Cl)c(C)[n+]([O-])c(Cl)c1-c1noc(-c2cc(O)c(O)c([N+](=O)[O-])c2)n1 gave an AUC(0-last) of 1660 ± 1130 ng·h/mL (Parkinson's disease patients, plasma; oral, 50 mg, day 1, after first dose).

For quick reference, copied from above:
The AUC(0-last) of N[C@@H](Cc1ccc(O)c(O)c1)C(=O)O is reported as 340 ng·h/mL and 329 ng·h/mL (rhesus and cynomolgus macaque, plasma; subcutaneous, dose not given, PDE9 inhibitor vehicle co-dosed).
